Measurements pooled from the literature.
Numbered parts are unrelated; each lists some results of a single study.

Block 1
Target: RING finger protein unkempt homolog, zinc fingers 1-6, GST-SBP tag (UNK, Homo sapiens, UniProt Q9C0B0, residues 30-357)
UniProt Q9C0B0, sequence (30-357, looked up): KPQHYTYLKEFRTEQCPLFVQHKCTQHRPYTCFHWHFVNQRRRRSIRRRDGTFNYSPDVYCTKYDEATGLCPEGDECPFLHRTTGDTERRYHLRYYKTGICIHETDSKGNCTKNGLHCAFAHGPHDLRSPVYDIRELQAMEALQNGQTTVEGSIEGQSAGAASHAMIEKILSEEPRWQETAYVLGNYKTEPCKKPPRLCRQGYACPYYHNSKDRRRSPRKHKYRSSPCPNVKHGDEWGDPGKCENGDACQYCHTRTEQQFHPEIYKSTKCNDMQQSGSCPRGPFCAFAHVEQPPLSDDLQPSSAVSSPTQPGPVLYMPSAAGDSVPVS
Technique: RNA Bind-n-Seq
Form: RNA
Sample: in vitro
Tested at: not given
Notes: RNA with constant flanks, ends assumed
Relative to: input RNA pool
Reading: higher = stronger binding
The bound/input enrichment of `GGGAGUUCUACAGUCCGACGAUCCCUCCAGAGUUCGGAUUUCCUGAGAAGAUAACAGUGAAACAGCGUUAUCGCCUACUUGGAAACCGUCUCAACGUGCAUGUAGUAGCUAAACUAAUCAAAAUCUUAUAUGAAUAAUUUUGACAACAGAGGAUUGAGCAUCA` is reported as 1.47 ratio.
The bound/input enrichment of `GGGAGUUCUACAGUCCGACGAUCGCUCCAAACCAGUUCUUCUGCAGAGUGGUGAUGUUAGCUUCCCCAGCUCCUCUCCAAGUCCCGCUUUUUCUGUCCUUCUGGCUCCAAGGUGCUCUGUGUCUGUGUGUGUGUGUCUGUCUGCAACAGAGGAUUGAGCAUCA` is reported as 0.842 ratio.
`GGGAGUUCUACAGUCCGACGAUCUAGCCUGAGUAUACAAUCAAGCUUCAGUGUGCAACCUUUUUUUCUUUUGCCAUUUUCUAUUUCCGUAAUUUCCUUGGGGAACUAAAUAAUUUUGCAGAAUUUUUCCUAAUUUUGUUUAUCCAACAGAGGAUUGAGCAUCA` gave a bound/input enrichment of 0.784 ratio.
`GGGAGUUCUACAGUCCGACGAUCAUUUUCUAGGAUGUCUUCUGAGAUAGGAAGGGAGAAGAGCCAGGACUGGGGGUCAGCUGGACCCGGUGGAGUAUUUAAAGUGGAGUGGAUACGCAAAGAAAGCCUUCCCUUUCAGUUUGCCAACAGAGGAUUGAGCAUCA` has a bound/input enrichment of 0.39 ratio.
`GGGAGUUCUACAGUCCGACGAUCUAAUAAUUAGCUAUUUUAUAAAGGUAACGAGAAAAAAUACACUAUGUCUGAUGAAGUUUUCCGCACCACUUUGGCAUAUACAAAGAGUCCAAAAGUUACCAAAAGAACUACUUUCCAGGACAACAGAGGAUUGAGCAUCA` gave a bound/input enrichment of 4.24 ratio.
With `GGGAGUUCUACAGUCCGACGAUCUCAUCGACCACCAUGACAACACCUACACAGUCAAGUACACGCCUGUCCAGCAGGGUCCAGCCGGCGUCAAUGUCACUUAUGGAGGGGAUCCCAUCCCUAAGAGCCCUUUCUCAGUGGCAGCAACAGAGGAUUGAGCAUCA` the bound/input enrichment was 0.227 ratio.
`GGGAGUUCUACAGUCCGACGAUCGUCAUUGAUGUCCUUCACCCCGGGAAGGCGACAGUGCCUAAGACAGAAAUUCGGGAAAAACCCGCCAAAAUGUACAAGACCACACCGGAUGUCAUCUUUGUAUUUGGAUUCAGAACUCAUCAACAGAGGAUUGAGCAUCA` gave a bound/input enrichment of 0.355 ratio.

Block 2
Target: Interferon regulatory factor 5, full length, phosphomimetic (IRF5, Homo sapiens, UniProt Q13568-2, residues 1-514, K96S/S451D/S453D/S456D/S462D)
Technique: protein-binding microarray
Form: double-stranded DNA, one strand shown
Sample: in vitro
Tested at: 250 nM
Notes: 60-bp whole probe
With: salmon DNA 0.4 mg/ml
Relative to: random background probes
Reading: higher = stronger binding
All sequences stand within: GCCTAGCAC … GTCTTGATTCGCTTGACGCTGCTG
The log fluorescence of `TTAGGTATCGGACTGTGTTAGTGCTAG` is reported as 1.43 z-score.
`TAATATATATATTGTTAGTGTGTGCTA` gave a log fluorescence of 0.657 z-score.
The log fluorescence of `TAAGGTATCGGGACTGGGTTAGTGCTA` is reported as 0.761 z-score.
`GACGGACTGGAGTATCGGGACGTGCTA` has a log fluorescence of 0.79 z-score.
With `TCATCTTTCACTGCTGCACTGTGCTAG` the log fluorescence was 3.02 z-score.
For `TACGGTTTCCTACTGCTGACGTGCTAG`, the log fluorescence was 0.64 z-score.
With `GAAGGTTTCGACTTTCGGGACGTGCTA` the log fluorescence was 7.99 z-score.
`GACGGTTTCGGAATGGGGACGTGCTAG` has a log fluorescence of 5.8 z-score.

Block 3
Molecule: PhoQ, residues 284 288 289 292 302 303 SIHLQL
Technique: Sort-seq
Item: YFP reporter
Sample: E. coli
Notes: PhoQ-PhoP variant library
With: 10 µM Mg2+
Relative to: high Mg2+ state
Reading: higher = stronger signaling
The fold induction was 6.51 (PhoP, residues 12 14 15 18 19 NYFRM (Escherichia coli, UniProt P23836)).
It gave 8.03 for fold induction (PhoP, residues 12 14 15 18 19 QYFSL (Escherichia coli, UniProt P23836)).
The fold induction was 11.3 (PhoP, residues 12 14 15 18 19 TQALL (Escherichia coli, UniProt P23836)).

Block 4
Target: RNA binding protein fox-1 homolog 2, RRM domain, GST-SBP tag (RBFOX2, Homo sapiens, UniProt O43251-10, residues 100-194)
Technique: RNA Bind-n-Seq
Form: RNA
Sample: in vitro
Tested at: 365 nM
Notes: natural RNA segment, single round, ends assumed
Relative to: no-protein control
Reading: higher = stronger binding
Target sequence (chain): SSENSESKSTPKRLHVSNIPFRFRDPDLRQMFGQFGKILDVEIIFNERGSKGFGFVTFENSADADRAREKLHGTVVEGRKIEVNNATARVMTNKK
Under “RBNS enrichment (R)”, `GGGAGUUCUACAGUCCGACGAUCUAAUACAUCUACCUUCCCUUAUACUUUCUUCUAAGGCCUGAUUUUCUUUGCUUGGGAAGUGGAUUAAUCUUAUCACUGGUCAUUUAGAGGAACCAAUGCCAAACCCCAUAUGGAAUUCUCGGGUGCCAA` is recorded as 0.805.
`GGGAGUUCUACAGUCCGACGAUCUUUCUGACCUUUGGCCUGUUCUAGUGCCUAAUCUCCAUUAUUAAAUACUGGCUUCUCCCAACUUCCUAAAAGGAAGUUUCCUCUUUAACUUAGGGAAGCCUUACCUACCAUGGAAUUCUCGGGUGCCAA` — result for “RBNS enrichment (R)”: 0.236.
`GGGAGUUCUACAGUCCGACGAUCGUAACAUCUUACAUUCUGUUUUCUUCCAGUCUUUGCAGUAUUCACUAGAGGUUCCCUUUGCAUGUUGCACUCUGUUCUCAUUUGGAGAUUGAACUCUGAAUUAACACAGUUGGAAUUCUCGGGUGCCAA` — result for “RBNS enrichment (R)”: 7.58.
`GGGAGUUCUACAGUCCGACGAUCGUAGUCUGGUUGUGAAGAACACUGAGUCAGUUGAUGGUGUGUCUUGUCCUCCAGACCAGGCAGCAACAUGGUAUUUAUUUUAAUCAUUAAAGUACAACAUGAGUAGUACAUGGAAUUCUCGGGUGCCAA` — result for “RBNS enrichment (R)”: 0.362.
Under “RBNS enrichment (R)”, `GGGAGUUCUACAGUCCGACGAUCACUAACUUUGUAAAAUGUGUCUGGACCACAAGAGGAUACAGGAGAAGUGCUACCUCUGAUCUAACUAGAGCAAGCUCAUGGCAGAAAAUAUCACAAACUUUAAAAUGUGAUGGAAUUCUCGGGUGCCAA` is recorded as 0.394.
`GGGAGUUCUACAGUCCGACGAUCGAACUCUGCUCUCAGAGCUAACGUGGAAUCUUCGCACCCAAGGGGAGGGUUGUGGUUCCUGUCACCUGGGCUGAGGAGCCAGGAAGGCCUAAGCACUUCACUCACACACGUGGAAUUCUCGGGUGCCAA`: “RBNS enrichment (R)” 0.545.
`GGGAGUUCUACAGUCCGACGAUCCAGUAGCUUAUUUGAACUUGAGACCAUUGUAAGCAUGACCCAACCUACCACCCUGUUUUUACAUAUCCAAUUCCAGUAACUCUCAAAUUCAAUAUUUUAUUCAAACUCUGUGGAAUUCUCGGGUGCCAA` — result for “RBNS enrichment (R)”: 3.52.
`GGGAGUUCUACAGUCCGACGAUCGGCAAGCUGCCAGACAACUCUGGCUCCUGUCAACCUUUUCACCUGGUGCCACAAAAGUAUUUCUGCUUUUUAGCCCUUUCUCUGCACCUCAACAAGAGAUAAAAAAAAACUGGAAUUCUCGGGUGCCAA`: “RBNS enrichment (R)” 0.694.
Under “RBNS enrichment (R)”, `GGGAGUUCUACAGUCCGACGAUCUUCCCAGGGUGAUUUCCUCAGUGCACAGGCAGCUCGAGAUGGAGGGAGGACAGCCACCAACUAGCUCACUCAGCAUUUUAAACUUGAGUUCCUUUGAUAUCUGAGUUUAUUGGAAUUCUCGGGUGCCAA` is recorded as 1.56.
`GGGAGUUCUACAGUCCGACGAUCGCCAAUGAAAUGUAAUCCAACUUUUGAUUCUUCAUAUAUAUUUUUAACCACUUUAUGGGCUUUUUGUUUUGCUUUGGCCCUUUGCUGCCAUUAUUACACACAGGAGAGCCUGGAAUUCUCGGGUGCCAA` — result for “RBNS enrichment (R)”: 0.798.
For `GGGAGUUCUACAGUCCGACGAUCCAUUCUUGGCCUUCCUAAUCACUCCCCACUCCUCUAGUCACAGUGUGGCUGAGGACUCAAGGCUGUGAAGACCAGGAGUUCCUGCUCUUGACAUUAUUCCUCCCACUUUGUGGAAUUCUCGGGUGCCAA`, “RBNS enrichment (R)” read 0.227.
Under “RBNS enrichment (R)”, `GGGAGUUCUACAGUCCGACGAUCCUUCUUUUCUCCUUCAGGAACUGUGAAUGGCUAGAAGAAGGAGCUCAGUAAACUAGAAGUCCAGGGUUGCUUGGUUUACUGGUUUAUAAGAAAUCUGAAAGCACCUCUGAUGGAAUUCUCGGGUGCCAA` is recorded as 0.446.
